Published values from different studies.
Protocols differ between the studies behind these lines.

C[C@H](Oc1ccc(Br)cc1-c1ccon1)C(=O)O
Cmax ratio (human, plasma; 800 mg single dose; reference: fed over fasted): 1.08

COc1ccc2nc([S@@+]([O-])Cc3ncc(CO)c(OC)c3C)[nH]c2c1
Cmax ratio (human; mean over sessions; reference: (R)-OH-omeprazole over compound): 7.1 fold

C=CC(=O)NC1CCN(c2ncc3ncnc(Nc4ccc(Oc5ccc6c(c5)ncn6C)c(C)c4)c3n2)CC1
Cmax ratio (human, male, plasma; oral, 30 mg, adjusted geometric means; reference: fed over fasted): 53.5%

COc1cc2nccc(Oc3ccc(NC(=O)c4cc5c(n(-c6ccccc6)c4=O)CCCC5=O)nc3)c2cc1OC
Cmax ratio (food effect; human; oral, 6 mg; reference: day 57 over day 28): 0.89

CC(=O)N[C@H]1CC[C@H](NC(=O)CN2CCN(c3nncc(-c4ccc(C)cc4)n3)CC2)CC1
Cmax ratio (healthy human, plasma; oral, 100 mg single dose; reference: female over male): 1.3

CCCCC1=NC2(CCCC2)C(=O)N1Cc1ccc(-c2ccccc2S(=O)(=O)Nc2noc(C)c2C)c(COCC)c1
Cmax ratio (healthy humans, plasma; oral, 800 mg; reference: fed over fasted): 2.12

N#CCNC(=O)c1ccc(-c2ccnc(Nc3ccc(N4CCOCC4)cc3)n2)cc1
Cmax ratio (healthy human volunteers, plasma; oral, together with: single-dose rifampin; reference: compound alone): 140%

N[C@]1(C(=O)O)[C@H]2[C@@H](C[C@@H]1F)[C@@H]2C(=O)O
Cmax ratio (human, both sexes, plasma; oral, 20 mg, single dose; reference: fed over fasted): 0.677

C=CC(=O)NC1CCN(c2ncc3ncnc(Nc4ccc(Oc5ccc6c(c5)ncn6C)c(C)c4)c3n2)CC1
Cmax ratio (healthy male humans; oral, together with: carbamazepine; reference: with over without carbamazepine): 56.4%

CC(C)[C@@H]1CC[C@@H](C)C[C@H]1OC(=O)O[C@@H](C)OC(=O)[C@H]1[C@@H]2C[C@H](F)[C@@](N)(C(=O)O)[C@@H]21
Cmax ratio (human, plasma; oral, 20 mg, single dose; reference: fed over fasted): 0.726

CC(C)=CCC/C(C)=C/CC/C(C)=C/CC[C@@](C)(O)CCC1=C(C)C(=O)C(C)=C(C)C1=O
Cmax ratio (human, plasma; oral, together with: itraconazole; reference: with over without itraconazole): 345%

CCNCc1cc(Nc2ccnc3cc(Cl)ccc23)ccc1O
Cmax ratio (humans, both sexes, plasma; oral, outlier included; reference: fixed over non-fixed combination): 0.85

A few entries again:
CC(C)=CCC/C(C)=C/CC/C(C)=C/CC[C@@](C)(O)CCC1=C(C)C(=O)C(C)=C(C)C1=O
Cmax ratio (human, plasma; oral, together with: itraconazole; reference: with over without itraconazole): 345%

CCNCc1cc(Nc2ccnc3cc(Cl)ccc23)ccc1O
Cmax ratio (humans, both sexes, plasma; oral, outlier included; reference: fixed over non-fixed combination): 0.85
